# Experimental data from different studies.
# A part holds a random share of what one study measured. Several values in a cell are separate wells, animals, samples, runs or records.
# UniProt O14920, sequence (whole entry, looked up): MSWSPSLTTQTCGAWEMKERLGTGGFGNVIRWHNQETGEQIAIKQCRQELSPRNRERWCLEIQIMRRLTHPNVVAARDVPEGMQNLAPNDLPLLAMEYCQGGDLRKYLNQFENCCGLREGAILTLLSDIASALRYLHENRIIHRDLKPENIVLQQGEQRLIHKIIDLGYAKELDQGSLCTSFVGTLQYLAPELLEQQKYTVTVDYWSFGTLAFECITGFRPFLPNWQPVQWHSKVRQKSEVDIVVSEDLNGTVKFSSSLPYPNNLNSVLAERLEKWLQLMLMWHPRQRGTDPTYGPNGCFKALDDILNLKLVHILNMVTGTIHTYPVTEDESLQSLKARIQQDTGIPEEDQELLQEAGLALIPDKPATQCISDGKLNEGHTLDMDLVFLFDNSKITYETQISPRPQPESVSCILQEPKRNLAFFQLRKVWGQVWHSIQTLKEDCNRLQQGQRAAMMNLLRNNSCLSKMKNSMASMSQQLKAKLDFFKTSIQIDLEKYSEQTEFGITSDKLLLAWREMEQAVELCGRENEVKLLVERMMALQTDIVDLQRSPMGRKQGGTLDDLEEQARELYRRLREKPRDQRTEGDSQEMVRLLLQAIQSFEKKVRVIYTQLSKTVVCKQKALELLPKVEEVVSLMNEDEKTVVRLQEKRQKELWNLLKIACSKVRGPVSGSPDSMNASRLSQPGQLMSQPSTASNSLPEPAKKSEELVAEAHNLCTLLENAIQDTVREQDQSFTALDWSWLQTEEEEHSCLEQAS
# UniProt O60331, sequence (whole entry, looked up): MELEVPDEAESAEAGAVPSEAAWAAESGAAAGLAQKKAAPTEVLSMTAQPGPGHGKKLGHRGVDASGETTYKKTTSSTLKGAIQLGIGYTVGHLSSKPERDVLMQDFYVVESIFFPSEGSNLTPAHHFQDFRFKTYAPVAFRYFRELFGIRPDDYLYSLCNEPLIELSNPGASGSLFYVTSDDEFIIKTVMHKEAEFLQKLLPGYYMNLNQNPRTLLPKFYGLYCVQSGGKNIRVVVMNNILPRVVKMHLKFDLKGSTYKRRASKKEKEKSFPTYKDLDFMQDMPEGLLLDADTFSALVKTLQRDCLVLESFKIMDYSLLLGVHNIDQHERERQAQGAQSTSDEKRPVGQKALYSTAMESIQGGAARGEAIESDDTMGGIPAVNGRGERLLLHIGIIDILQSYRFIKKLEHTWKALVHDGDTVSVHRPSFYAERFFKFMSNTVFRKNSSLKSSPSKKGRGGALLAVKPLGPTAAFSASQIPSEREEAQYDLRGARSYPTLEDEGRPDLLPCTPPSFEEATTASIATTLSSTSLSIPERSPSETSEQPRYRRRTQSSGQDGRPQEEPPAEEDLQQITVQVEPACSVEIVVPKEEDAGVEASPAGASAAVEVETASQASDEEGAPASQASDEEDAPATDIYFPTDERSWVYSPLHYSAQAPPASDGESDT
# UniProt Q8NE63, sequence (whole entry, looked up): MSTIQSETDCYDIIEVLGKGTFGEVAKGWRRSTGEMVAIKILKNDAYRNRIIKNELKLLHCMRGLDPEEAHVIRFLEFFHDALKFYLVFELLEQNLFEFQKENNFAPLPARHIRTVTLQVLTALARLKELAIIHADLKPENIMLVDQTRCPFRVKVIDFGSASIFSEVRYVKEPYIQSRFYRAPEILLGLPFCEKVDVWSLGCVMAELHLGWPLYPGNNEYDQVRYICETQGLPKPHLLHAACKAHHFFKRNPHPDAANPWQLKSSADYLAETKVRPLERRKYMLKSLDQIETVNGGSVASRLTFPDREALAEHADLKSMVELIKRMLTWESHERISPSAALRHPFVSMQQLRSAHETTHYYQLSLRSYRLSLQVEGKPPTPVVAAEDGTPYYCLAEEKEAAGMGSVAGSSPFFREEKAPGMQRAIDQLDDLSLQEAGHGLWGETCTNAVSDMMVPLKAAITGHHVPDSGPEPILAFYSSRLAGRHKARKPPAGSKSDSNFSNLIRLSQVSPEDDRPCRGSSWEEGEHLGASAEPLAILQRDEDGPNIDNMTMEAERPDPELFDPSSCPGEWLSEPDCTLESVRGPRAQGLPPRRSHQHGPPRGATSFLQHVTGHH
# UniProt Q9UIK4, sequence (whole entry, looked up): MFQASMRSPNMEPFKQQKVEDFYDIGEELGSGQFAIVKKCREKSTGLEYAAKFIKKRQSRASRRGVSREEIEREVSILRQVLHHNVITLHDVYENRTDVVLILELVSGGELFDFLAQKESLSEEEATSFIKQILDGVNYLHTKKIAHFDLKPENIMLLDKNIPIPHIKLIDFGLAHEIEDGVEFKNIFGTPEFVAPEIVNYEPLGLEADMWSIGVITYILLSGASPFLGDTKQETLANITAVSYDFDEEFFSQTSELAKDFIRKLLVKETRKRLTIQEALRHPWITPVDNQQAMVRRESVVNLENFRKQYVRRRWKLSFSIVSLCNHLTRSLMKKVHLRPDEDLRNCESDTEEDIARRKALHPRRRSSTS
# UniProt P54764, sequence (whole entry, looked up): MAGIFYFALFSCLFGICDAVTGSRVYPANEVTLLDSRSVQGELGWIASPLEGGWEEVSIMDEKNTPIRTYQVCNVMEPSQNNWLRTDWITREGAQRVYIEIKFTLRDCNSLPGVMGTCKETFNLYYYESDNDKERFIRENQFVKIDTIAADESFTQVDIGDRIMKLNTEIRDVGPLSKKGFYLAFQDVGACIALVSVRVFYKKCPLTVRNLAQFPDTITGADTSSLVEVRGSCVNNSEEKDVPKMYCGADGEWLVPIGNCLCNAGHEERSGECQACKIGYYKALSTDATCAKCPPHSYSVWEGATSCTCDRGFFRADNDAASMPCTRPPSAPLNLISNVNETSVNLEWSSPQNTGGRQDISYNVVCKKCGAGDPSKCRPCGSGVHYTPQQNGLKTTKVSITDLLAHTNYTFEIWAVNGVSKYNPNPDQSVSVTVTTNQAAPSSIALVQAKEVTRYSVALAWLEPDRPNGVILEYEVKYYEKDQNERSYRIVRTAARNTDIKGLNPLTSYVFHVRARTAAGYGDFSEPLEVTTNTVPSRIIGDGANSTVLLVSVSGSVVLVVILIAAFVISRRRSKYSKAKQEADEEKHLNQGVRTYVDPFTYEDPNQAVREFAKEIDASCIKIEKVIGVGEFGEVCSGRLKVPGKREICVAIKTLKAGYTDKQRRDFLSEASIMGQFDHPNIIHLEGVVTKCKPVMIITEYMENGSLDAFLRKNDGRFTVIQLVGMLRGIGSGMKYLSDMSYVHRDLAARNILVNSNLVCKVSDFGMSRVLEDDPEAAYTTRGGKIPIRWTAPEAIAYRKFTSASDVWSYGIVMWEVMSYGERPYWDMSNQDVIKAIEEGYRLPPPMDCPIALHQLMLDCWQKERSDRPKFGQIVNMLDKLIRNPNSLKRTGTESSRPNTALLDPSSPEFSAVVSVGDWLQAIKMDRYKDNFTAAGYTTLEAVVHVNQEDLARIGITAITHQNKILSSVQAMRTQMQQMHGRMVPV
# UniProt P42336, sequence (whole entry, unmodified, looked up): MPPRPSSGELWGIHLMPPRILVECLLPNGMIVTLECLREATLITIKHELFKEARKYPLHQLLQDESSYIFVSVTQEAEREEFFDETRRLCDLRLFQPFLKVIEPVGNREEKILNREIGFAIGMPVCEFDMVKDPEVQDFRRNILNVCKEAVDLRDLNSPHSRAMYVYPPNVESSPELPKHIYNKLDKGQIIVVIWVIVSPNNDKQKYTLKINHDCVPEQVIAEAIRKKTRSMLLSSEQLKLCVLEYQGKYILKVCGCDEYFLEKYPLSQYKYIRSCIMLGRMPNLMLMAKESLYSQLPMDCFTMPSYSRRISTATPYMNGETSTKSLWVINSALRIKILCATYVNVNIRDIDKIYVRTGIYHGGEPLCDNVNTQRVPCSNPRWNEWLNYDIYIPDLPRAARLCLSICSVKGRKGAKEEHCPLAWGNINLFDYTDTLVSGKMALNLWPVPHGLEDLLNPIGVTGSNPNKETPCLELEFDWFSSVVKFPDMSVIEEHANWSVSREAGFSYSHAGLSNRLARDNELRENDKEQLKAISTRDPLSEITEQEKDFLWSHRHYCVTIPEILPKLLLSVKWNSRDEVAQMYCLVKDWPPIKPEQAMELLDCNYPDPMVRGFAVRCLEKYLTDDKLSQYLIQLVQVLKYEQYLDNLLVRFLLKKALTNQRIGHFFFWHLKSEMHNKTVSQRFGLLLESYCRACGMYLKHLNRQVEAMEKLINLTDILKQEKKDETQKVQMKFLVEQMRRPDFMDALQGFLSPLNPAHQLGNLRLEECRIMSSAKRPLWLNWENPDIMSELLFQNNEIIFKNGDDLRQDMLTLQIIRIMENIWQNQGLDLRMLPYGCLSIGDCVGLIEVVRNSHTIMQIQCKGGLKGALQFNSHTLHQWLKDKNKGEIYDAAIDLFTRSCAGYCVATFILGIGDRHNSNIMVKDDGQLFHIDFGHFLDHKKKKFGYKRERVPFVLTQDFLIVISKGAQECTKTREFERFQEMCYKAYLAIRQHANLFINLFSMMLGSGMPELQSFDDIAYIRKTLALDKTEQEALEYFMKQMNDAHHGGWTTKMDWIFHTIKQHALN
# UniProt P11802, sequence (whole entry, looked up): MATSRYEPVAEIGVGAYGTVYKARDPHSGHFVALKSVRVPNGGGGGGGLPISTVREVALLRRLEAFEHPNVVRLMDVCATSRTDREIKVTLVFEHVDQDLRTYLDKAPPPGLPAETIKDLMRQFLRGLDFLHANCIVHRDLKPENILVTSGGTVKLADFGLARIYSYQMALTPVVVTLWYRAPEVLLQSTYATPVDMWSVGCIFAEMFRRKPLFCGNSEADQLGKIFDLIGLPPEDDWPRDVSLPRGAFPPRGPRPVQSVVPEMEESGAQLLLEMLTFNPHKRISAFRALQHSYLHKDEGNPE

# Sample 1
# SMILES: CNc1cc2c(Nc3cccc(Br)c3)ncnc2cn1
# Effect on: enzyme activity
# Action: inhibitor
# Tested at: 0.5 µM
# Baseline: control
target,remaining activity [%]
"MAPK9 (Homo sapiens, UniProt P45984)",96.5
"Tyrosine-protein kinase Lyn, isoform B (LYN, Homo sapiens, UniProt P07948)",81.9
"Cyclin-dependent kinase 5, with p25 (CDK5, Homo sapiens, UniProt Q00535)",82.9
"STK10 (Homo sapiens, UniProt O94804)",31.8
"Protein kinase C beta type, isoform beta-I (PRKCB, Homo sapiens, UniProt P05771)",95.3
"Cyclin-dependent kinase 4, with cyclin D1 (CDK4, Homo sapiens, UniProt P11802)",104
"DAPK2 (Homo sapiens, UniProt Q9UIK4)",136
"CHEK2 (Homo sapiens, UniProt O96017)",85.7
"STK39 (Homo sapiens, UniProt Q9UEW8)",94
"TGFBR2 (Homo sapiens, UniProt P37173)",105
"GRK3 (Homo sapiens, UniProt P35626)",101
"IKBKE (Homo sapiens, UniProt Q14164)",87.1
"OXSR1 (Homo sapiens, UniProt O95747)",88.3
"CAMKK2 (Homo sapiens, UniProt Q96RR4)",80
"IKBKB (Homo sapiens, UniProt O14920)",98.2
"PRKACA (Homo sapiens, UniProt P17612)",104
"CAMK2D (Homo sapiens, UniProt Q13557)",97.9
"NEK2 (Homo sapiens, UniProt P51955)",88.2
"cGMP-dependent protein kinase 1, isoform beta (PRKG1, Homo sapiens, UniProt Q13976)",107
"DAPK1 (Homo sapiens, UniProt P53355)",80.5
"TGFBR1 (Homo sapiens, UniProt P36897)",97.7

# Sample 2
# Host: human
# Sample: microsomes or S9
# Tested at: 2 µM
# Time: 0.5 h
SMILES,remaining compound [%]
CC(C)(C)n1cc(/C=C/c2ncc(Br)s2)nn1,90.1
CCN1CCN(C2(CNc3oc(-c4ccc(Br)o4)nc3C#N)CCCCC2)CC1,53.2
COC(=O)c1ccc(-c2noc(C(C)C)n2)cc1Cl,0

# Sample 3
# SMILES: C[C@H](NC(=O)c1cnc2n1[C@](C)(Cc1ccc(C#N)cc1)C(=O)N2c1cc(Cl)c(F)c(Cl)c1)C(=O)NC1(c2ccccn2)CC1
# Technique: competition with immobilised ligand
# Tested at: 1 µM
target,effect on,remaining binding [%]
"PRKCI (Homo sapiens, UniProt P41743)",cell-free assay,100
"GRK1 (Homo sapiens, UniProt Q15835)",cell-free assay,100
"STK32B (Homo sapiens, UniProt Q9NY57)",cell-free assay,80
"CDK18 (Homo sapiens, UniProt Q07002)",cell-free assay,100
"BRSK2 (Homo sapiens, UniProt Q8IWQ3)",cell-free assay,100
"MAP3K20 (Homo sapiens, UniProt Q9NYL2)",cell-free assay,100
"MAK (Homo sapiens, UniProt P20794)",cell-free assay,100
"MAP3K12 (Homo sapiens, UniProt Q12852)",cell-free assay,100
"CAMK1D (Homo sapiens, UniProt Q8IU85)",cell-free assay,99
"PRKCE (Homo sapiens, UniProt Q02156)",cell-free assay,100
"PIK3CA (Homo sapiens, UniProt P42336, M1043I)",cell-free assay,100
"TRPM6 (Homo sapiens, UniProt Q9BX84)",cell-free assay,100
"IKBKB (Homo sapiens, UniProt O14920)",cell-free assay,90
"Tyrosine-protein kinase ABL1, non-phosphorylated (ABL1, Homo sapiens, UniProt P00519, F317I)",binding,100
"EPHA4 (Homo sapiens, UniProt P54764)",cell-free assay,100
"DCLK1 (Homo sapiens, UniProt O15075)",cell-free assay,89
"HIPK4 (Homo sapiens, UniProt Q8NE63)",cell-free assay,100
"CDKL2 (Homo sapiens, UniProt Q92772)",cell-free assay,100
"PIP5K1C (Homo sapiens, UniProt O60331)",cell-free assay,80
"WNK1 (Homo sapiens, UniProt Q9H4A3)",cell-free assay,100

# Further values, each from its own experiment
Structure (SMILES),target,cell line,tested at,setting,baseline,quantity,result
Ic1ccc(Nc2nc(NCCN3CCOCC3)nc(N3CCOCC3)n2)cc1,"lysosomal β-galactosidase (human, wild type)",healthy dermal fibroblasts,1 µM,unit not given,DMSO,remaining activity,1.09 and 1.11 and 1.21 and 1.19

# Repeated from above (sample 3):
target,effect on,remaining binding [%]
"MAP3K12 (Homo sapiens, UniProt Q12852)",cell-free assay,100
"CAMK1D (Homo sapiens, UniProt Q8IU85)",cell-free assay,99
"PRKCE (Homo sapiens, UniProt Q02156)",cell-free assay,100
"PIK3CA (Homo sapiens, UniProt P42336, M1043I)",cell-free assay,100
"TRPM6 (Homo sapiens, UniProt Q9BX84)",cell-free assay,100
